# Results pooled from the literature.
# Protocols differ between the studies behind these lines. Values joined by “and” are separate records of one study, mostly repeats; a detail may differ. Numbers after ± are the reported error.
# KCNT1: Potassium channel subfamily T member 1 (KCNT1, Homo sapiens, UniProt Q5JUK3)
# Kelch domain-containing protein 2: Kelch domain-containing protein 2 (UniProt Q9Y2U9)
# ERAP1 I681R: Endoplasmic reticulum aminopeptidase 1 (ERAP1, Homo sapiens, UniProt Q9NZ08, I681R)
# CFTR del508-508: Cystic fibrosis transmembrane conductance regulator (CFTR, Homo sapiens, UniProt P13569, del508-508)
# YAP1 WW2 domain: Transcriptional coactivator YAP1, WW2 domain (YAP1, Homo sapiens, UniProt P46937)
# YAP1 WW1 domain: Transcriptional coactivator YAP1, WW1 domain (YAP1, Homo sapiens, UniProt P46937)
# T1: miR-21 precursor (Homo sapiens); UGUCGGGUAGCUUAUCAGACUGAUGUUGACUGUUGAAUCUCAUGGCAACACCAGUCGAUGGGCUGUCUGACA
# T2: DNA aptamer, truncated, engineered stem; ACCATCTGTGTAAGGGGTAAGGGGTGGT
Molecule,target,assay,test system,conditions,how to read,quantity,result
COc1c(Nc2cc(C(F)(F)F)cc(C(F)(F)F)c2)c(=O)c1=O,"CD209 antigen (CD209, Homo sapiens, UniProt Q9NNX6)","activator, plate-based HRP",,"500 µM, overnight, 4 °C or RT",baseline: DMSO control,HRP binding,≥ 50%
CCN(CCO)CCCC(C)Nc1ccnc2cc(Cl)ccc12 (stereo not drawn),"Prosaposin, Saposin B (PSAP, Homo sapiens, UniProt P07602)",tyrosine fluorescence quenching,,"pH 5.5, 25 °C, together with: saposin B 40 µM",,log Ka,3.81
CCOc1ccccc1C(C)N1CC(c2nc(-c3ccsc3)no2)C1 (stereo not drawn),KCNT1,"Tl+ flux, activator",HEK293 expressing KCNT1,30 µM,baseline: loxapine maximum response,efficacy,< 10%
Clc1ccc(-c2cs/c(=N/N=C\c3c[nH]c4ccccc34)n2Cc2ccccc2)cc1,"Aldo-keto reductase family 1 member A1 (Bos taurus, UniProt Q3ZCJ2)","enzyme activity, inhibitor, absorbance",,1 mM,,inhibition,< 50%
O=[N+]([O-])c1ccc(OS(=O)(=O)O)cc1,"SULT1A1 (Homo sapiens, UniProt P50225)","sulfation, substrate inhibition",,"pH 6.2, 37 °C, competitive versus PAP, together with: PAP 5 to 20 µM",,Ki,25 ± 4 mM
Nc1ccc(-c2nc([C@H]3CCc4cc(-c5cc(Cl)ccc5-n5cnnn5)cc(=O)n43)c(F)[nH]2)c(F)n1,"F11 (Homo sapiens, UniProt P03951)",,"human, blood","oral, 250 mg once daily, fed, day 1, 24 h",,FXI activity inhibition,67 ± 6.5%
TVGNRGFVFGG,Kelch domain-containing protein 2,native mass spectrometry,"peptide, 200 mM ammonium acetate","20 µM Kelch domain-containing protein 2, pH 7",baseline: total Kelch domain-containing protein 2 signal,fraction of protein bound,0.3%
IINFEKL,ERAP1 I681R,substrate,peptide,"pH 8.0, 27 °C, mutant I681R, together with: L-AMC, peptide activator 100 µM",,Hill coefficient,1.4
Cc1ccc(-c2csc3ncn(Cc4ccncc4)c(=O)c23)o1,"MAD2L2, with REV3L peptide (Homo sapiens, UniProt Q9UI95, R124A)",,,concentration not given,,activity,inactive
Clc1cccc(Nc2nnc(-c3ccccc3)c3ccccc23)c1,"PDE3A (Homo sapiens, UniProt Q14432)","cAMP hydrolysis, inhibitor, fluorescence polarization",recombinant enzyme,"up to 100 µM, 30 min preincubation, 30 °C, together with: fluorescein-cAMP 25 nM",,IC50,inactive
YSLAAVVLGLVQSLNRQRQKQLLNE,"Calmodulin-1 (Calm1, Rattus norvegicus, UniProt P0DP29, D21A/D57A)","Ca2+ dissociation, stopped-flow quin-2 fluorescence",peptide,"2 µM, pH 7.4, 22 °C, together with: Ca2+-calmodulin complex",,koff1,8.45 s⁻¹ and 8.5 s⁻¹
IINFEKE,ERAP1 I681R,substrate,peptide,"pH 8.0, 27 °C, mutant I681R, together with: L-AMC, peptide activator 100 µM",,Hill coefficient,1.7
Cc1cc(C)c2cc(C#N)c(NCCNC(=O)c3ccncc3)nc2c1,CFTR del508-508,"CFTR correction, corrector, iodide influx rate",FRT expressing YFP-H148Q/I152L,"up to 25 µM, 16-20 h, 37 °C, together with: forskolin 20 µM, genistein 50 µM",,Vmax,176 µM/s
c1cnc2c(c1)ccc1cccnc12,"Stromal processing peptidase, chloroplastic (SPP, Pisum sativum, UniProt Q40983)",,,5 mM,,transit peptide conversion,inhibited
Cc1ccc2c(c1)sc(-c1ccc(N(C)C)cc1)[n+]2C,"Transthyretin, fibrils (TTR, Homo sapiens, UniProt P02766)",,amyloid fibrils,1 µM,baseline: pH 3.0 over pH 7.5,fluorescence increase,4.3 fold
EGEVIVFGG,Kelch domain-containing protein 2,native mass spectrometry,"peptide, 200 mM ammonium acetate","20 µM Kelch domain-containing protein 2, pH 7",baseline: total Kelch domain-containing protein 2 signal,fraction of protein bound,4.3%
Clc1ccc(SSc2ccc(Cl)cc2)cc1,tubulin,"colchicine binding, [3H]colchicine binding",,"5 µM, 10 min, 37 °C, together with: [3H]colchicine 5.0 µM",,inhibition,9.8 ± 2%
CC(C)C[C@H](NC(=O)[C@@H](NC(=O)[C@@H](N)[C@@H](C)O)C(C)C)C(=O)N[C@@H](C)C(=O)N1CCC[C@H]1C(=O)N1CCC[C@H]1C(=O)N1CCC[C@H]1C(=O)N[C@@H](Cc1ccc(O)cc1)C(=O)N[C@@H](CCCNC(=N)N)C(=O)N[C@@H](Cc1c[nH]cn1)C(=O)N[C@@H](CCCNC(=N)N)C(=O)N[C@@H](CC(N)=O)C(=O)O,YAP1 WW2 domain,"binding, ITC",,"pH 7.0, 25 °C, WW2 domain",,ΔG,-5.41 ± 0.12 kcal/mol
CC[C@H](C)[C@H](NC(=O)[C@H](CC(C)C)NC(=O)[C@H](Cc1ccccc1)NC(=O)[C@@H](NC(=O)[C@H](C)N)[C@@H](C)O)C(=O)N[C@@H](CCC(N)=O)C(=O)N[C@@H](CCC(=O)O)C(=O)N[C@@H](Cc1ccc(O)cc1)C(=O)N[C@@H](Cc1ccccc1)C(=O)N[C@@H](CCCNC(=N)N)C(=O)N[C@@H](CCCCN)C(=O)N[C@@H](Cc1ccccc1)C(=O)N[C@@H](CCCCN)C(=O)N[C@@H](CCCCN)C(=O)N[C@@H](CCCNC(=N)N)C(=O)N[C@@H](CCCCN)C(=O)N[C@@H](CCC(=O)O)C(=O)N[C@@H](CCC(N)=O)C(=O)NCC(=O)N[C@@H](CC(C)C)C(=O)N[C@H](C(=O)NCC(=O)N[C@@H](CCCCN)C(=O)N1CCC[C@H]1C(=O)N[C@@H](CO)C(=O)N[C@@H](CCC(N)=O)C(=O)O)C(C)C,"rat calmodulin 1-80, sites I and II",fluorescence titration,,"6 to 8 µM, pH 7.4, 22 °C",,"apparent calcium binding free energy, ΔG1",-6.66 ± 0.22 kcal/mol
ACASDEGEVIVFGG,Kelch domain-containing protein 2,native mass spectrometry,"peptide, 200 mM ammonium acetate","20 µM Kelch domain-containing protein 2, pH 7",baseline: total Kelch domain-containing protein 2 signal,fraction of protein bound,0.3%
Nc1nc2c(ncn2[C@@H]2O[C@@H]3COP(=O)(O)O[C@H]3[C@H]2O)c(=O)[nH]1,"CNGA1 (Bos taurus, UniProt Q00194)","ion current, agonist, inside-out patch clamp",Xenopus oocytes,rod homomeric channel,baseline: maximum cGMP current at start,Imax relative to cGMP,1
CCOc1ccccc1S(=O)(=O)N1CC(c2nc(-c3ccc(F)cc3Cl)no2)C1,KCNT1,"ion current, activator, automated patch clamp",CHO,30 µM,baseline: bepridil 60 µM,efficacy,100%
CC(C)C[C@H](NC(=O)[C@@H](NC(=O)[C@@H](N)[C@@H](C)O)C(C)C)C(=O)N1CCC[C@H]1C(=O)N1CCC[C@H]1C(=O)N1CCC[C@H]1C(=O)N[C@@H](C)C(=O)N[C@@H](Cc1ccc(O)cc1)C(=O)N[C@@H](CCCNC(=N)N)C(=O)N[C@@H](Cc1c[nH]cn1)C(=O)N[C@@H](CCCNC(=N)N)C(=O)N[C@@H](CC(N)=O)C(=O)O,YAP1 WW2 domain,"binding, ITC",,"pH 7.0, 25 °C, WW2 domain",,TΔS,-4.74 ± 0.4 kcal/mol
COc1cc2c3c(cc4ccccc4c3c1OC)N(C)CC2,"T1, miR-21 precursor (Homo sapiens)",DSF,,"3 µM, NaCl 0.25 mM",,melting temperature shift,-15.7 °C
CC(C)C[C@H](NC(=O)[C@@H](NC(=O)[C@@H](N)[C@@H](C)O)C(C)C)C(=O)N1CCC[C@H]1C(=O)N1CCC[C@H]1C(=O)N1CCC[C@H]1C(=O)N1CCC[C@H]1C(=O)N[C@@H](Cc1ccc(O)cc1)C(=O)N[C@@H](CCCNC(=N)N)C(=O)N[C@@H](Cc1c[nH]cn1)C(=O)N[C@@H](C)C(=O)N[C@@H](CC(N)=O)C(=O)O,YAP1 WW1 domain,"binding, ITC",,"pH 7.0, 25 °C, WW1 domain",,TΔS,-4.27 ± 0.29 kcal/mol
Cc1cc(C)c2cc(C#N)c(N3CCN(C(=O)c4ccncc4)CC3)nc2c1,CFTR del508-508,"ΔF508-CFTR correction, corrector",FRT,"up to 25 µM, 37 °C, together with: forskolin 20 µM + genistein 50 µM",,EC50,inactive
COc1ccc(Cl)cc1Nc1nc2c(s1)CCCCc1nc(NC(=O)c3ccno3)sc1-2,CFTR del508-508,"iodide influx, corrector, YFP halide quenching",FRT cells expressing YFP-H148Q/I152L,"16 to 20 h, 37 °C, genistein 50 µM, together with: forskolin 20 µM",,Vmax,467 µM/s
O=S(=O)(Sc1ccc(Cl)cc1)c1ccc(Cl)cc1,tubulin,"colchicine binding, [3H]colchicine binding",,"50 µM, 10 min, 37 °C, together with: [3H]colchicine 5.0 µM",,inhibition,75 ± 2%
CCN(c1nc(N)c(C(=O)NC(=N)N)nc1Cl)C(C)C,"Degenerin mec-4 (mec-4, Caenorhabditis elegans, UniProt P24612, A713T)","ion current, two-electrode voltage clamp",Xenopus oocytes coexpressing MEC-2,"30 µM, -85 mV","baseline: uninjected oocytes, positive inhibition, negative potentiation",current change,5.53 µA
IKPAKRMKFKTVCYLLVQLMHCRKMFKA,"Calmodulin-1 (Calm1, Rattus norvegicus, UniProt P0DP29, D130A/D94A)","Ca2+ dissociation, stopped-flow quin-2 fluorescence",peptide,"2 µM, pH 7.4, 22 °C, together with: Ca2+-calmodulin complex",,koff2,5.6 s⁻¹ and 5.55 s⁻¹
O=C(O)CNC(=O)C(CS)Cc1ccccc1 (stereo not drawn),"Neprilysin (Rattus norvegicus, UniProt P07861)","inhibitor, MALDI-TOF MS",isolated rat glomeruli,"10 µM, 60 min, 37 °C, together with: ANG-I 1 µM",,ANG-(2-10) formation,46.6 ± 10.5 pg/glomerulus
CC(C)C[C@H](NC(=O)[C@@H](NC(=O)[C@@H](N)[C@@H](C)O)C(C)C)C(=O)N1CCC[C@H]1C(=O)N1CCC[C@H]1C(=O)N1CCC[C@H]1C(=O)N1CCC[C@H]1C(=O)N[C@@H](Cc1ccc(O)cc1)C(=O)N[C@@H](CCCNC(=N)N)C(=O)N[C@@H](C)C(=O)N[C@@H](CCCNC(=N)N)C(=O)N[C@@H](CC(N)=O)C(=O)O,YAP1 WW1 domain,"binding, ITC",,"pH 7.0, 25 °C, WW1 domain",,ΔH,-14.6 ± 0.35 kcal/mol
O=S(=O)(O)CCS,"T2, DNA aptamer, truncated, engineered stem",electrochemical aptamer sensor,,1 mM,,binding,no binding
CC(C)[C@H](NC(=O)OCc1ccccc1)C(=O)N[C@H](C=O)Cc1ccccc1,integrin alphaM beta2 (human),"ligand binding, inhibitor, flow cytometry",human neutrophils,"concentration not given, 1 h, 37 °C, integrin clustering inhibitor, together with: Alexa 488-labelled fibrinogen","baseline: no inhibitor, lower means less binding",bound fibrinogen fluorescence,415 ± 55 MFI
CC(C)C[C@H](NC(=O)[C@H](C)NC(=O)[C@@H](N)[C@@H](C)O)C(=O)N1CCC[C@H]1C(=O)N1CCC[C@H]1C(=O)N1CCC[C@H]1C(=O)N1CCC[C@H]1C(=O)N[C@@H](Cc1ccc(O)cc1)C(=O)N[C@@H](CCCNC(=N)N)C(=O)N[C@@H](Cc1c[nH]cn1)C(=O)N[C@@H](CCCNC(=N)N)C(=O)N[C@@H](CC(N)=O)C(=O)O,YAP1 WW1 domain,"binding, ITC",,"pH 7.0, 25 °C, WW1 domain",,TΔS,-11 ± 0.73 kcal/mol
N[C@@H](Cc1cnc[nH]1)C(=O)O,"HARS1 (Homo sapiens, UniProt P12081, Y330C)","thermal stability, DSF",,,,ΔTm,4.23 °C
CC[C@H](C)[C@H](NC(=O)[C@@H]1CCCN1C(=O)[C@@H]1CCCN1C(=O)[C@@H]1CCCN1C(=O)[C@@H](NC(=O)[C@H](CC(N)=O)NC(=O)[C@@H](N)Cc1ccccc1)[C@@H](C)CC)C(=O)N[C@@H](Cc1ccc(O)cc1)C(=O)N[C@H](C(=O)N[C@@H](CO)C(=O)N[C@@H](CCCNC(=N)N)C(=O)N[C@@H](C)C(=O)O)[C@@H](C)O,YAP1 WW2 domain,"binding, ITC",,"pH 7.0, 25 °C, WW2 domain",,ΔH,-3.9 ± 0.52 kcal/mol
CCOc1ccccc1S(=O)(=O)N1CC(c2nnc(-c3ccc(F)cc3)[nH]2)C1,KCNT1,"Tl+ flux, activator",HEK293 expressing KCNT1,30 µM,baseline: loxapine maximum response,efficacy,37%
CC1=C(/C=C/C(C)=C/C=C/C(C)=C/C(=O)O)C(C)(C)CCC1,"RARA (Homo sapiens, UniProt P10276)","reporter gene, antagonist, Gal4 transactivation luciferase",HEK293,"0.1 µM, together with: all-trans retinoic acid 100 nM",baseline: agonist alone,remaining activity,100%
